Experimental data from different studies.
Parts stem from different laboratories: compare values within a part only. Positions count from the first letter of the parent shown.

Block 1
Target: Ras GTPase-activating protein-binding protein 1, full length (G3BP1, Homo sapiens, UniProt Q13283)
Sequence of UniProt Q13283 (whole entry, looked up): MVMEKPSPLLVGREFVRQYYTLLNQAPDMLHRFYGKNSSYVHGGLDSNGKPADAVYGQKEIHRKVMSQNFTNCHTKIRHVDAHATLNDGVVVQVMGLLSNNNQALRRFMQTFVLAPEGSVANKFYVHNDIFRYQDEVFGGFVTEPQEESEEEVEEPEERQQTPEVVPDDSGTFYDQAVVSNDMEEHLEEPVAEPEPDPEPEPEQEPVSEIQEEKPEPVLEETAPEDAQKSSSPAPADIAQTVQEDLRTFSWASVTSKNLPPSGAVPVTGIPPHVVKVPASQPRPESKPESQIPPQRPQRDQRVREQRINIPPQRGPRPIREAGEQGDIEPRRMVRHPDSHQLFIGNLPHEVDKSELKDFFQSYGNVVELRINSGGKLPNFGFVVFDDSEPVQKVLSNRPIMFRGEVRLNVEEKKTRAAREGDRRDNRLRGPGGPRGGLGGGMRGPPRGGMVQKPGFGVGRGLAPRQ
Technique: RNA Bind-n-Seq
Form: RNA
Sample: in vitro
Concentration: 200 nM
Notes: whole 134-nt RNA, ends assumed
Together with: 150 mM KCl
Reference: input library
Reading: higher = stronger binding
Quantity: log2 enrichment
Shared flanks, not repeated: GGGAGUUCUACAGUCCGACGAUC … UGGAAUUCUCGGGUGUCAAGG
UUUUACUUCUCCGCCAGGUGCUGUGCUCCAUCAUCGCCGGUACCUUGCACUAUCUCUACCUGGCCACCUUGACCUGGAUGCUGCUGGAGG: 0.0799
UCAAGUCCUGUGCUACACAUCGUAUGUACCGAAUCGGGUGGGUUUGGGAAAGGGAAAGUAUUAUGUUACGCCGUUCGGAUCUGCACUUCC: 0.975
AAGUCCUGUGCUACACAUCGUAUGUACCGAAUCGGGGCCCGGCCCGGGGCCCGGGGAAAGUAUUAUGUUACGCCGUUCGGAUCUGCACUU: -1.35
UCAAGUCCUGUGCUACACAUCGUAUGUACCGAAUCGGGUUGGUUGGGGUUGGGGAAAGUAUUAUGUUACGCCGUUCGGAUCUGCACUUCC: 0.631
GUCCUGUGCUACACAUCGUAUGUACCGAAUCGGGGAAAGGGGUGGGGAAAAAAAGGGGAAAGUAUUAUGUUACGCCGUUCGGAUCUGCAC: 0.355
UGGGAGGUGGAUUUUGUUUAUUUUUUUAGCUCAUUUCCAGGGGGGGGAAUUUUUUUUUAAUAUGUGUCAUGAAUAAAGUUGUUUUUGAAA: 0.438
AGUCCUGUGCUACACAUCGUAUGUACCGAAUCGGGGAAAGGGGAGGGGUUUUUGGGGAAAGUAUUAUGUUACGCCGUUCGGAUCUGCACU: 0.358
UAACUUUAGAGGAGGAUCUGAUGGAUAUGGCAGUGGACGUGAAUUUGGGGAUGGCUAUAAUGGGUAUGGAGGAGGACCUGGAGGUGGCAA: 0.428
CAAGUCCUGUGCUACACAUCGUAUGUACCGAAUCGGGAAAGGAAAGGGGAAAGGGGAAAGUAUUAUGUUACGCCGUUCGGAUCUGCACUU: 0.327
GCAGGAAGUGAAAACAAAUGGAAAUGCUUCGGAUAGUGGCAGGGGUGGGGGUUGCUAAGGAAAGGGUGGGAUGGGAGUGGGUAAAGAGUU: 0.576
CACAGACAACACGCACCCACACAGACACAGAGGGAAGGGGUUGGGAUGGGGACAGGGUGCACAGCAGGGCGGGGUAGGAACCCAGCCCCU: 1.69
CAAGUCCUGUGCUACACAUCGUAUGUACCGAAUCGGUUUGGAAAAAGGUUUUUGGAAAGUAUUAUGUUACGCCGUUCGGAUCUGCACUUC: -1.05

Block 2
Target: Histone acetyltransferase KAT6A, winged helix 2, GST fusion (KAT6A, Homo sapiens, UniProt Q92794, residues 85-181)
Technique: protein binding microarray
Form: double-stranded DNA, one strand shown
Sample: in vitro
Concentration: not given
Notes: 8-mer, flanks averaged, mean of 2 arrays, mostly near background
Reference: not given
Reading: higher = stronger binding
Quantity: E-score
Construct (chain): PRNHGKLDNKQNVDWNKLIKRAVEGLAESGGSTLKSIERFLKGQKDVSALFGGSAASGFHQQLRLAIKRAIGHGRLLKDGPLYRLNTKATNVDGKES
GCCAACGA: -0.0791
CGGCGTGA: 0.0935
AACGTGGA: -0.124
GATTTCCA: -0.0179
ACTTTCAG: 0.0332
AAAAAGCC: 0.0526
CGCGGAGA: 0.268
CCTATCTA: -0.158
CCCCAGCG: 0.107
ACATGTAA: -0.0731
AGATAATC: 0.0791
CATTCCGG: 0.0371
AATCTTGT: 0.0662

Block 3
Target: Interferon regulatory factor 7, full length, phosphomimetic (IRF7, Homo sapiens, UniProt Q92985, residues 1-503, S101K/S471D/S472D/S475D/S476D/S477D/S483D/S484D/S487D)
Technique: protein-binding microarray
Form: double-stranded DNA, one strand shown
Sample: in vitro
Concentration: 250 nM
Notes: 60-bp whole probe
Together with: salmon DNA 0.4 mg/ml
Reference: random background probes
Reading: higher = stronger binding
Quantity: log fluorescence
Shared flanks, not repeated: GCCTAGCAC … GTCTTGATTCGCTTGACGCTGCTG
Residues (chain): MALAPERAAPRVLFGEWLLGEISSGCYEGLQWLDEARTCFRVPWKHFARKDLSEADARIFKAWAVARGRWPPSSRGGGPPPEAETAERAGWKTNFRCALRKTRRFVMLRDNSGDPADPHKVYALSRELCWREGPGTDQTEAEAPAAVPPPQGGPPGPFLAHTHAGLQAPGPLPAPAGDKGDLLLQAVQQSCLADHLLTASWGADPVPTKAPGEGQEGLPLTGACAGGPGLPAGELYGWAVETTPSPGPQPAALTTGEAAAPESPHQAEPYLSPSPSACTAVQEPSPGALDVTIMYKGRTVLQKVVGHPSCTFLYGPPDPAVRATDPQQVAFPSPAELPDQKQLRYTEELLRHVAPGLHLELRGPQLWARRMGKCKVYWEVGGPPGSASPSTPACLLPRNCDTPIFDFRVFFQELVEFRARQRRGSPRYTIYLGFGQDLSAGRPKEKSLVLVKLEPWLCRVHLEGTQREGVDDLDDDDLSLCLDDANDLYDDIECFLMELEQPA
TCAGTTGTAGTTTTCATACTGTGCTAG: 0.491 z-score
TCAATTTTGTTTTTCATACTGTGCTAG: 1.36 z-score
TTTGGTATCGGGACTGGGTTAGTGCTA: 0.359 z-score
TTAGGTATCTACACTGGGTTAGTGCTA: -0.516 z-score
TAAGATCTCAGTCTCGATTAGTGCTAG: 1.72 z-score
CCCTTTTAAGTTCTCTGAAGGTGCTAG: 1.67 z-score
TTAGATATCGGGACGGGATTAGTGCTA: 0.231 z-score
GACGGTATCGACTTACGGGACGTGCTA: 2.11 z-score
TAGCGTATATTCCCTAGAATAGTGCTA: -0.167 z-score
TCATATTTACTCTCTACAACTGTGCTA: 0.959 z-score
TCACATTTCTGTTTTTGACTGTGCTAG: 1.38 z-score
TACTCTCTCCATGTGTTTAAGTGCTAG: 0.923 z-score
AACTTTTTTTAATTGAGAAGGTGCTAG: 0.135 z-score
TTAGATTTCAGTCTCGTTTAGTGCTAG: 3 z-score
TTAGATATCCGGACTGGATTAGTGCTA: -0.351 z-score
TTAGGTCTCCTTCTCCTTTTGTGCTAG: 0.854 z-score

Block 4
Target: CCNB1, cyclin fold, Cln2 fusion (human)
Technique: yeast growth competition, sequencing
Sample: yeast
Notes: weak parent motif
Reference: not given
Reading: higher = stronger binding
Quantity: normalised enrichment score
Starting sequence: SAMHD1 docking peptide (human); ASKSRVQLFKDDP
S2M: 0.249
F9D: 0.338
D12V: 0.674
F9Q: -0.00245
S4D: 0.226
V6R: 0.237
S2G: 0.17
S2R: 0.00988
D11I: 0.328
L8Y: 0.284
D12G: 0.186
K3F: 0.352
D11H: 0.644
F9H: 0.465
K3D: 0.251

Block 5
Target: RNA binding protein fox-1 homolog 2, RRM domain, GST-SBP tag (RBFOX2, Homo sapiens, UniProt O43251-10, residues 100-194)
Technique: RNA Bind-n-Seq
Form: RNA
Sample: in vitro
Concentration: 365 nM
Notes: natural RNA segment, single round, ends assumed
Reference: no-protein control
Reading: higher = stronger binding
Quantity: RBNS enrichment (R)
Shared flanks, not repeated: GGGAGUUCUACAGUCCGACGAUC … UGGAAUUCUCGGGUGCCAA
Residues (chain): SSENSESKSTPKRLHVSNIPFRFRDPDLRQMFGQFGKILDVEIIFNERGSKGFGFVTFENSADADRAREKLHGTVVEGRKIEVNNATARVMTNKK
AUUGUCAUAGUACACCUGUAAAAAUGGUUGCACAUCAGAAGGGGCUUUGAAGCGCUUGUAUGUUGUUUGCCGGAGUCAUUGUAAUUUUUUUGUUUGUUUUUUUGGGCUUU: 1.97
UAUGUGCUUUGUCAUUUUCUUUGCUAAACAAAAGAGGCUAUGAAAGAACUAAAUAUGAGUACAUAAAAUUCUAUCUUUGAUAAAUUUUAUUUUUAUGCCCUACUUAAUAU: 0.749
UAGCUAGGUGAUAGACAUUUUCAAAAAUUGCCUGACUGGCCAAGUUACAAGGAUGCCUCUCCACACUUGUCCUCUCUACCCACCUACGCUGGAAAUCCAGUUCUUCAGGA: 0.261
CCAAGCGAUGGCCGCUCUCUCCUCUCCCCUCCUCAGAGGGGGCAGAUAGAAACUGGGACGGAUUCAAGUCACAUGCACGCGGAUAGCAGUAAGCCACACACCUGCCACUU: 0.75
GCCUGAAGCUAUUGCUGCUCGUCUACCAGGAGGAUGUGGAGAUCUUUAGACACGAAAUGCGUGCUAGGACUGGCAGCAGUUCCUGAGCCUGGCUGCCAGGCAACAGGAAG: 0.83
CUCAACUUUCCUAGGAAAGAGCCCACCUCGGAGAUAGCUACGGUUUUCUCUGGUGGAGAUGGUGAGGAUGAAGGCUGGAGAGUGAGGGAGGAGGCUCUGCUGGCCGCAGA: 0.548
UUUAAAAAUUUGUCCUUAAAUGAAUAAAUAAAAUAAAAGUUGGUCCUGUGAGAGGAUAAUGAAGAUGCGACCUCGCUCACCUUCCCUUUAUUCUGCCGCAAAGUCCCACC: 0.247
UCCUGCAAGGGCUAGCUGAGACUCAGUCCUGAUGAUAGGAGGUUACAGACUGCCUGCUCUAGGAUCUCUUGCUGUCUUCUCCUGGUCUCUGGCUUCUGCCUCACCUGCAA: 0.518
CAGUUCGGGUGUUCCAUUGCACCCCUGUGCAGAUCUUUCCAGACUUGGCAACUUUACUUGGCUGAAUGAACUCCAAUCGGAAACAAUUGCUUCAAGCCAGUUUUUCCUUU: 0.318
UUUUCCAGUUAGUCUUCUUCAAGGAAUUACUAUUGUUCCUUUUGUCACAGGUAAAAUCAGUGUUGGGAAUUAUAAUUUGAGAAAAAUAUUACCCAGUAACAUUGAAUGUA: 0.468
GAGCAGUCUGCCUCUCCCAAGCCCCAGGGGACAGUGGGGAGGCAGGGGAGGGGGUGGCUGUGGUCCAGGGACCCCAGGCCCUGAUUCCUGUGCCUGGCGUCUGUCCCGGC: 0.407
AGGAGCACGGACGCCUCUGUGAGGCAUGGGAAGGUGGGAUUGUUGAACUAAUAAACGUUAAUCUGAUUGUGUGGCUAUUUUACUCUGGUGUAAAGGUUGCAGGGGCAAAG: 3.44

For quick reference, copied from above (block 1):
UCAAGUCCUGUGCUACACAUCGUAUGUACCGAAUCGGGUUGGUUGGGGUUGGGGAAAGUAUUAUGUUACGCCGUUCGGAUCUGCACUUCC: 0.631
CAAGUCCUGUGCUACACAUCGUAUGUACCGAAUCGGUUUGGAAAAAGGUUUUUGGAAAGUAUUAUGUUACGCCGUUCGGAUCUGCACUUC: -1.05
UAACUUUAGAGGAGGAUCUGAUGGAUAUGGCAGUGGACGUGAAUUUGGGGAUGGCUAUAAUGGGUAUGGAGGAGGACCUGGAGGUGGCAA: 0.428
UCAAGUCCUGUGCUACACAUCGUAUGUACCGAAUCGGGUGGGUUUGGGAAAGGGAAAGUAUUAUGUUACGCCGUUCGGAUCUGCACUUCC: 0.975
GUCCUGUGCUACACAUCGUAUGUACCGAAUCGGGGAAAGGGGUGGGGAAAAAAAGGGGAAAGUAUUAUGUUACGCCGUUCGGAUCUGCAC: 0.355
UUUUACUUCUCCGCCAGGUGCUGUGCUCCAUCAUCGCCGGUACCUUGCACUAUCUCUACCUGGCCACCUUGACCUGGAUGCUGCUGGAGG: 0.0799
UGGGAGGUGGAUUUUGUUUAUUUUUUUAGCUCAUUUCCAGGGGGGGGAAUUUUUUUUUAAUAUGUGUCAUGAAUAAAGUUGUUUUUGAAA: 0.438
AGUCCUGUGCUACACAUCGUAUGUACCGAAUCGGGGAAAGGGGAGGGGUUUUUGGGGAAAGUAUUAUGUUACGCCGUUCGGAUCUGCACU: 0.358
